Results gathered from unrelated publications.
Numbered parts are unrelated; each lists some results of a single study. Substitutions count along the parent as printed.

Sample 1
Target: CCNA1, cyclin fold, Cln2 fusion (human)
Method: yeast growth competition, sequencing
Matrix: yeast
Notes: weak parent motif
Relative to: not given
Direction: higher = stronger binding
Quantity: normalised enrichment score
Starting sequence: SCAPER docking peptide (human); SNARRSLNFGGST; partner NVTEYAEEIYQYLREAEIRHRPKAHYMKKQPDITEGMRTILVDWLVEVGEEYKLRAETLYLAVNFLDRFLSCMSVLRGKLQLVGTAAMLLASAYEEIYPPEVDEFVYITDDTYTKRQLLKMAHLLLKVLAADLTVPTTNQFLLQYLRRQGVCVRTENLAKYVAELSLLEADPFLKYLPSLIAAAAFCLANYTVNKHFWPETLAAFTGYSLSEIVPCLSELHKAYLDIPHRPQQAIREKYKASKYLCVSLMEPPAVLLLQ
T13P: 0.735
F9A: 0.24
S6E: 0.331
S6T: 0.466
S12Q: 0.427
S1G: 0.473
N8M: 0.268
N2Q: 0.635
S6V: 0.497
G11I: 0.544
R4T: 0.403

Sample 2
Target: Ras GTPase-activating protein-binding protein 1, RRM domain (G3BP1, Homo sapiens, UniProt Q13283)
UniProt Q13283, sequence (whole entry, looked up): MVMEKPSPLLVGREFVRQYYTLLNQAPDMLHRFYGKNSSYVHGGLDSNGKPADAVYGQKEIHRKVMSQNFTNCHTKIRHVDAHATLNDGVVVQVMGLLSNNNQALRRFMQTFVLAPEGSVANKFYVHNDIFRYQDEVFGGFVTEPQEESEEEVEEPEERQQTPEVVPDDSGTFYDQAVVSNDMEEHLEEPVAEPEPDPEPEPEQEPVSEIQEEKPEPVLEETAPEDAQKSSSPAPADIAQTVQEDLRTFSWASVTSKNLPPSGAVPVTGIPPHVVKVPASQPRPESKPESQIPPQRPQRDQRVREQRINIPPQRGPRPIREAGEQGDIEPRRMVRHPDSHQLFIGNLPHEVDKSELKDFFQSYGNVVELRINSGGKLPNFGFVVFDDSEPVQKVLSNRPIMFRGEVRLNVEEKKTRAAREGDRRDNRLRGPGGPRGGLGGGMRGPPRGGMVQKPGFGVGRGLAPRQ
Method: RNA Bind-n-Seq
Form: RNA
Matrix: in vitro
Tested at: 1 µM
Notes: whole 134-nt RNA, ends assumed
Added: 150 mM KCl
Relative to: input library
Direction: higher = stronger binding
Quantity: log2 enrichment
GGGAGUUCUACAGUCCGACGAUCGCAGGAAGUAAAAACAAAUGGAAAUGCUUCGGAUAGUGGCAGGGGUGGGGGUUGCUAAGGAAAGGGUGGUAUGGGAGUGGGUAAAGAGUUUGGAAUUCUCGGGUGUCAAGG: 1.51
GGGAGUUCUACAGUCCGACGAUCCCUGUGCUACACAUCGUAUGUACCGAAUCGGGGAAAAAAAGGGGAAAAAAAGGGGUGGGGAAAGUAUUAUGUUACGCCGUUCGGAUCUGCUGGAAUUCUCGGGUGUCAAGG: 0.591
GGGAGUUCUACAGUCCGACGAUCUGGGAGGUGGAUUGUGUUUAUUUUUUUAGCUCAUUUCCAGGGGUGGGAAUUUUUUUUUAAUAUGUGUCAUGAAUAAAGUUGUUUUUGAAAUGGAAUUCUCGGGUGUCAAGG: 1.91
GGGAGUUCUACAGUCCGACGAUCCACAGACAACACGCACCCACACAGACACAGAGGGAGGGGGUUGGGAUGGGGACAGGGUGCACAGCAGGGCGGGGUAGGACCCCAGCCCCUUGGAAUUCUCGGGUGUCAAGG: 0.13
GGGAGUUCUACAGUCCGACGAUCCACAGACAACACGCACCCACACAGACACAGAGGGAAGGGGUCGGGAUGGGGACAGGGUGCACAGCAGGGCGGGGUAGGACCCCAGCCCCUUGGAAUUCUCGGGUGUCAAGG: -0.0739
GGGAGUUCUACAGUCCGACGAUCGCAGGAAGUAAAAACAAAUGGAAAUGCUUCGGAUAGUGGCAGGGGUGGGGGUUGCUAAGGAAAGGGUGGGAUGGGAGUGGGUACAGAGUUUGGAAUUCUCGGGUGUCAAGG: 0.498
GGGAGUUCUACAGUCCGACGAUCGCAGGAAGUAAAAACAAAUGGAAAUGCUUCGGAUAAAGGCAGGGGUGGGGGUUGCUAAGGAAAGGGUGGGAUGGGAGUGGGUAAAGAGUUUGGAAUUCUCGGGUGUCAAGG: 1.44
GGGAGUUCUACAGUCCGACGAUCUCCUGUGCUACACAUCGUAUGUACCGAAUCGGGGUUUUUUUGGGGAAAAAGGGGAGGGGAAAGUAUUAUGUUACGCCGUUCGGAUCUGCAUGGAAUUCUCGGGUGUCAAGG: 0.491
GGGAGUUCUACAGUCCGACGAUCCCUCAAGUCCUGUGCUACACAUCGUAUGUACCGAAUCGGGCGGGCGGGCGGGGAAAGUAUUAUGUUACGCCGUUCGGAUCUGCACUUCCAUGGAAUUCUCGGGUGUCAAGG: 2.3

Sample 3
Target: POU domain, class 5, transcription factor 1, POU domain (Pou5f1, Mus musculus, UniProt P20263, residues 131-289)
UniProt P20263, sequence (131-289, looked up): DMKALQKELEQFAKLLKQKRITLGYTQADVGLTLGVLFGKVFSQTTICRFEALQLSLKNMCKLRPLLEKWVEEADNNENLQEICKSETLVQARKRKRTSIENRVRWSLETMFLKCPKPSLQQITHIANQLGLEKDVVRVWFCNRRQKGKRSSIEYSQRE
Method: Spec-seq
Form: double-stranded DNA, one strand shown
Matrix: in vitro
Tested at: not given
Notes: whole probe, mean of replicates
Relative to: not given
Direction: lower = stronger binding
Quantity: relative binding energy
All sequences stand within: GAGTCGTCTCGTCAGCAC … CCGTAGAGCACTCAGGTC
ATGAGCAT: 0.33 ln ratio
CTTCTAAT: 0.84 ln ratio
ATGTCTAT: 0.641 ln ratio
ATTGAGAT: 0.141 ln ratio
ATGGAGAT: -0.313 ln ratio
ATGTCGAT: 0.589 ln ratio
ATGCACTG: 0.431 ln ratio
ATGCCTAT: 0.472 ln ratio
ATGATAAT: -0.701 ln ratio
ATGCTTGC: 0.61 ln ratio

Single results of other studies
PhoQ, residues 284 288 289 292 302 303 SLSVQF
fold induction (PhoP, residues 12 14 15 18 19 LHHSG (Escherichia coli, UniProt P23836); Sort-seq, refers to: YFP reporter; E. coli; PhoQ-PhoP variant library, added: 10 µM Mg2+; relative to: high Mg2+ state, higher = stronger signaling): 3.96

For quick reference, copied from above (sample 1):
S6V: 0.497
S6T: 0.466
S1G: 0.473
